Assay results gathered from unrelated publications.
Each line is one published result; not all experiments were run side by side. “And” joins repeats or separate records; there may be more than shown. ± gives the spread as reported.
UniProt P51575, sequence (whole entry, unmodified, looked up): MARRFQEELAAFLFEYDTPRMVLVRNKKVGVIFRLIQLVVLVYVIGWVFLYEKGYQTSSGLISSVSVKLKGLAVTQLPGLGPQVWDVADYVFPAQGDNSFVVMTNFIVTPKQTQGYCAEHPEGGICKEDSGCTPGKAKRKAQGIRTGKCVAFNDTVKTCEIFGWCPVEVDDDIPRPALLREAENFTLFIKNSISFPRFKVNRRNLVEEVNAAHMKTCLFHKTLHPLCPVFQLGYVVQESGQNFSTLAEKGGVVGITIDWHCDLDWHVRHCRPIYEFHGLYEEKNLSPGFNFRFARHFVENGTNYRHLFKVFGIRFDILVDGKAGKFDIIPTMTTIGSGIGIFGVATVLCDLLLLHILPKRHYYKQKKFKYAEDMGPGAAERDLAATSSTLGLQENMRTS
UniProt Q16774, sequence (whole entry, unmodified, looked up): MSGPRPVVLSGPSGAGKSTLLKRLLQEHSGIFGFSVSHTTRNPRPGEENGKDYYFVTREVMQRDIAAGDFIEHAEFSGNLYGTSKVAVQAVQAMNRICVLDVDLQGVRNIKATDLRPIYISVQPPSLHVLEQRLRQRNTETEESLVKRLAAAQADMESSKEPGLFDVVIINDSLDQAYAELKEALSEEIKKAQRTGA
UniProt P00519, sequence (whole entry, unmodified, looked up): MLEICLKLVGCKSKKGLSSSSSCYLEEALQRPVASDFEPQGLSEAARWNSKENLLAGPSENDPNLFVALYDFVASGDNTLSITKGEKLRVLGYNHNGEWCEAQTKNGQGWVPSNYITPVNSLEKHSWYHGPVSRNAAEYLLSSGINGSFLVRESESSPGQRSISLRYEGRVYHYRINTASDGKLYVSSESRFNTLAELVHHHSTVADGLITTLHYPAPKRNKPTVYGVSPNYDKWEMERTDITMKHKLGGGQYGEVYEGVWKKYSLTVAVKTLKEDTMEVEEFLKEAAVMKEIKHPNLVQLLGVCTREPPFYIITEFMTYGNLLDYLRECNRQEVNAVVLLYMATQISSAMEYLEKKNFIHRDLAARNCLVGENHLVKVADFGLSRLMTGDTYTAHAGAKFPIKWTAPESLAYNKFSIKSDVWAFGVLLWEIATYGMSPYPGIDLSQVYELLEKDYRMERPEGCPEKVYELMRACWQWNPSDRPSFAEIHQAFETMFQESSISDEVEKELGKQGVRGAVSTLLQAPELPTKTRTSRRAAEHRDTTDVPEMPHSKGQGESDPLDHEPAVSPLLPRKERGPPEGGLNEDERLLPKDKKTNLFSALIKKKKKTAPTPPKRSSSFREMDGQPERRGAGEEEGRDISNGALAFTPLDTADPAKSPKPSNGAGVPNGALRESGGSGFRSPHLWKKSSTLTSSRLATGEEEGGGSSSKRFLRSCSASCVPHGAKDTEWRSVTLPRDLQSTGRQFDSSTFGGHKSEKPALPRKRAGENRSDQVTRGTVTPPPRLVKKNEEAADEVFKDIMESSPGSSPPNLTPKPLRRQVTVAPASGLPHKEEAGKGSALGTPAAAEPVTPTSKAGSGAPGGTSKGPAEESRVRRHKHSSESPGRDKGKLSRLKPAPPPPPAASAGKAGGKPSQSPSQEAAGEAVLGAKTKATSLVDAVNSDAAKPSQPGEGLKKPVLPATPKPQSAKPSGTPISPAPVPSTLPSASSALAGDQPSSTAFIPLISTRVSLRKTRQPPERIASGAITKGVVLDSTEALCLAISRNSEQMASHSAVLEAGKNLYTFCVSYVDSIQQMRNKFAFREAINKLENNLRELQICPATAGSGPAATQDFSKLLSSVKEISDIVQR
UniProt P00441, sequence (whole entry, unmodified, looked up): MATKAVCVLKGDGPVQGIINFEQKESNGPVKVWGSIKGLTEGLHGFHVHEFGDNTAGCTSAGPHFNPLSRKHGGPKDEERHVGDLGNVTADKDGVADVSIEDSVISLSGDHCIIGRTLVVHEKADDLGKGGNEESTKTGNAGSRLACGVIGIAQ
UniProt P54292, sequence (whole entry, looked up): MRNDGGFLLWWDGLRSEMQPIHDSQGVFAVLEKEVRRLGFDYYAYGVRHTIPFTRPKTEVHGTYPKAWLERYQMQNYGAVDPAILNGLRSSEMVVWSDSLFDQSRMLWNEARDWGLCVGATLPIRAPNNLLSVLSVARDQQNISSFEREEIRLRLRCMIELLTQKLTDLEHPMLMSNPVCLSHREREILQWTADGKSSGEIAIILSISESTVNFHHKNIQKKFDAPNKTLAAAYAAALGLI
UniProt P61962, sequence (whole entry, looked up): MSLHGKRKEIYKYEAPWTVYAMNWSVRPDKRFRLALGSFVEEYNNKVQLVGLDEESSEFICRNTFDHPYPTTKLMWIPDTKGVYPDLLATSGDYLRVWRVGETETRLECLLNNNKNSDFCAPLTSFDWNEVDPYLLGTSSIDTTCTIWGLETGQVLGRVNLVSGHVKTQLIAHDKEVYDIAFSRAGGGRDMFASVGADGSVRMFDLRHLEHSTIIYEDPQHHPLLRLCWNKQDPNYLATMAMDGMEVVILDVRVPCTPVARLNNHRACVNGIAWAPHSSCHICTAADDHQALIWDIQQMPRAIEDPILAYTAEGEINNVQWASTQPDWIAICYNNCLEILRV
UniProt P51531, sequence (whole entry, unmodified, looked up): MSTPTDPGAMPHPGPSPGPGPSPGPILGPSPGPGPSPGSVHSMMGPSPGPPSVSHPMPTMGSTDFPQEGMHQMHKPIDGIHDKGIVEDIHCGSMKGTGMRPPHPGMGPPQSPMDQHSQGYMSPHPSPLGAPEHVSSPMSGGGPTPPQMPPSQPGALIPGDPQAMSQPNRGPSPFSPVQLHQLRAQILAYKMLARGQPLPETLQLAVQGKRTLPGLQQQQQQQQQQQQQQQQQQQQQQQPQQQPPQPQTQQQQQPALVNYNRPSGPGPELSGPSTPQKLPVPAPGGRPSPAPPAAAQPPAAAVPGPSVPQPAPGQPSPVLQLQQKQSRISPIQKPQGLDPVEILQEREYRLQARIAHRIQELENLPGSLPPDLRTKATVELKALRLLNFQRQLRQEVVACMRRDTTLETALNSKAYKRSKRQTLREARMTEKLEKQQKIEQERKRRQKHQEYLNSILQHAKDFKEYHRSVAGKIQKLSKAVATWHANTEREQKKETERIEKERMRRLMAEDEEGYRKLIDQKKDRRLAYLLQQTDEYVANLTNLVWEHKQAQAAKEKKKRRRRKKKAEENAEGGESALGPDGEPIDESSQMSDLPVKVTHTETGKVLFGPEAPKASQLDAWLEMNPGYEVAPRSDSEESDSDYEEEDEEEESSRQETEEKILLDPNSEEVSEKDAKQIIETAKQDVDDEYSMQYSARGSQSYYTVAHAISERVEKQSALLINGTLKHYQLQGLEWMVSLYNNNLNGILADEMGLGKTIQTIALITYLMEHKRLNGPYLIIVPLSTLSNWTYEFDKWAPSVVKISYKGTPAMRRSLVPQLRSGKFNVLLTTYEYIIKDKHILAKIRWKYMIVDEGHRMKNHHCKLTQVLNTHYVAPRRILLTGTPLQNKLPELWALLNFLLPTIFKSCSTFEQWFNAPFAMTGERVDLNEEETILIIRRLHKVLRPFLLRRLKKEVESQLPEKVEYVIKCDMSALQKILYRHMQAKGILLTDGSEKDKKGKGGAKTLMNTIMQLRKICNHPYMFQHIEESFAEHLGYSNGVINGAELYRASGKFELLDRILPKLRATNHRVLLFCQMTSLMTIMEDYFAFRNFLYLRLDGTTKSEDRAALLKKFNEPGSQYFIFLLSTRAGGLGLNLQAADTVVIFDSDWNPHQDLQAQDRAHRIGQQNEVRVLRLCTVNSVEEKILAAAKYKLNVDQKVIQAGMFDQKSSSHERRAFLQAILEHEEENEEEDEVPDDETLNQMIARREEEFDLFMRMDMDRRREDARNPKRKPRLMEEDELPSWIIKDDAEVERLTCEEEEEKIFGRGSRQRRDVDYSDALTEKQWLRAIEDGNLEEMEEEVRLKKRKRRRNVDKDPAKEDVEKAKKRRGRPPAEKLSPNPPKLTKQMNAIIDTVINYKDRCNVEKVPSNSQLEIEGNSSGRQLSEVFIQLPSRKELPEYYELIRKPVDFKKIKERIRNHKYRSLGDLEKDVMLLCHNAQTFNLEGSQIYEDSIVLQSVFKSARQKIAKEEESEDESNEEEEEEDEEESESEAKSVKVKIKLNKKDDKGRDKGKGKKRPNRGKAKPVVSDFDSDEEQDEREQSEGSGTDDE
UniProt P35869, sequence (whole entry, looked up): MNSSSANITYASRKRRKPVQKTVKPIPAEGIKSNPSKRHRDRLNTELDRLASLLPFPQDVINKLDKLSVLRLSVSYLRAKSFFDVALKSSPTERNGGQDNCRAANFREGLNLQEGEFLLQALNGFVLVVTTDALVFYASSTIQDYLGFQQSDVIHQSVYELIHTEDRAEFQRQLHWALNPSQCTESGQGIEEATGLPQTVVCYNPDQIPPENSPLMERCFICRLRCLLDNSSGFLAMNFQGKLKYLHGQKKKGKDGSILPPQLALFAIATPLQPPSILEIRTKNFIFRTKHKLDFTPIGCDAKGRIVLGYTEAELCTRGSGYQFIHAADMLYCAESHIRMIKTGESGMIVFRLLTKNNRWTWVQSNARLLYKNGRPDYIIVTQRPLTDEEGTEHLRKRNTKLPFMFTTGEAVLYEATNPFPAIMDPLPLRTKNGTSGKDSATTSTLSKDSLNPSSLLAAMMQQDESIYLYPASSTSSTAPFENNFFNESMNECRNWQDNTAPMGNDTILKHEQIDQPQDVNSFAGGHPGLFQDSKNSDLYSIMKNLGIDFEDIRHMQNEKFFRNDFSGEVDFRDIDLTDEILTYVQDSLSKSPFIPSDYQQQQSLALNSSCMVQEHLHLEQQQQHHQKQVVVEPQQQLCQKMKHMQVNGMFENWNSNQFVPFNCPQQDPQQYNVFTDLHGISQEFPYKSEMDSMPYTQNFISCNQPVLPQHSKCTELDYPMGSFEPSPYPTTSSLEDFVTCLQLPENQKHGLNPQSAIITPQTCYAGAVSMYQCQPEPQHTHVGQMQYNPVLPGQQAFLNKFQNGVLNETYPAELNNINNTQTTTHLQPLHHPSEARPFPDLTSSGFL

Compound	target	assay	system	conditions	how to read	measurement	result
Cc1cc2ccccc2c2ccc3ccccc3c12	Aryl hydrocarbon receptor (Danio rerio, UniProt Q9YGV3)	reporter gene, agonist, luciferase reporter	ZF-4	1111.11 µM	relative to: vehicle control	fold change	4.43
CCCCCCCCCCCCC/C=C/[C@@H](O)[C@H](CO)NC(=O)CCCCCCCCCCCCCCCCCCCCCCCCC	Protein SET (SET, Homo sapiens, UniProt Q01105)	lipid binding, GFP pull-down LC-MS/MS	A549 overexpressing GFP-tagged protein	unit not given	relative to: vector-transfected cells	bound endogenous lipid	7.1
Nc1ncnc2c1ncn2[C@@H]1O[C@H](COP(=O)(O)CP(=O)(O)OP(=O)(O)O)[C@@H](O)[C@H]1O	P2X purinoceptor 1 (P2RX1, Homo sapiens, UniProt P51575, D170A)	saturation binding	HEK293	1 nM		specific binding	1.5 CCPM and 8 CCPM and -12 CCPM
CCOC(=O)c1cccc(C(=O)c2c[nH]c3ccccc23)n1	AHR (Homo sapiens, UniProt P35869)	reporter gene, agonist, XRE luciferase	HepG2		relative to: ITE	Emax	44 ± 3%
COc1cc(C#CC(=O)c2ccccc2)ccc1O	rhlR (Pseudomonas aeruginosa, UniProt P54292)	reporter gene, inhibitor	Pseudomonas aeruginosa QS reporter strain	10 µM, 1.5 h	relative to: DMSO control	remaining activity	52%
CC(=C/C(=O)O)/C=C/C=C(\C)C1C=C2C(C)(C)CCCC2(C)O1 (stereo not shown)	Rhodopsin (RHO, Homo sapiens, UniProt P08100, E181K)	ER retention, immunostaining co-localization, measured: opsin with calnexin	COS-7 transfected E181K	0.10 µM		Pearson correlation coefficient	0.81
CCN1CCC[C@H]1CNC(=O)c1c(O)c(Cl)cc(Cl)c1OC	Trace amine-associated receptor 6 (TAAR6, Homo sapiens, UniProt Q96RI8)	β-arrestin recruitment, TANGO luminescence, measured: TAAR6		concentration not given	relative to: basal luminescence	log2 fold change	-0.084
COc1cc(-c2cc(C(C)=O)n3ccccc23)c(OC)cc1Cn1ccnc1	SMARCA2 (Homo sapiens, UniProt P51531)					ΔTm	-1.5 °C
Nc1nc2c(ncn2[C@@H]2O[C@H](COP(=O)(O)O)[C@@H](O)[C@H]2O)c(=O)[nH]1	GUK1 (Homo sapiens, UniProt Q16774, S37P)	enzyme activity, NADH-coupled		500 µM		reaction rate	1.16 s⁻¹ and 1.47 s⁻¹ and 1.45 s⁻¹
c1coc(-c2n[nH]cc2-c2ccnc3ccccc23)c1	pH-response regulator protein palF/RIM8 (RIM8, Candida albicans, UniProt Q9UW13)	kinase binding, MIB/MS competition	Candida albicans lysate	10 µM	relative to: DMSO, negative = stronger binding	log2 fold change	-0.1
N[C@@H]1CCN(c2nccc(-c3cnn4ncccc34)n2)C1	ABL1 (Homo sapiens, UniProt P00519, H396P)	KINOMEscan		1 µM		remaining binding	78% and 100%
[O-][S+]1CCCCS1 (stereo not shown)	SOD1 (Homo sapiens, UniProt P00441, G94A)	intact protein LC-MS	SOD1 G93A transgenic mice, whole blood	intravenous, 10 mg/kg, 12 h		target engagement	42% and 40.9%
CC[C@@H]1[C@H](F)C(=O)N[C@@H]1COc1nccc2cc(C(N)=O)c(OC)cc12	MASTL (Homo sapiens, UniProt Q96GX5)	ATP-site probe binding, ActivX profiling	THP-1 cell lysate	0.01 mM, Lys1 site		inhibition	-10.8%
CCCCc1nnc2c(N)nc3ccccc3n12	TLR8 (Homo sapiens, UniProt Q9NR97)	reporter gene, agonist, NF-κB reporter	HEK-Blue TLR8			EC50	inactive
O=C(O)[C@@H]1CCCN1c1ncnc2[nH]cnc12 (racemic)	DDB1- and CUL4-associated factor 7 (Homo sapiens, UniProt P61962)	binding, affinity selection mass spectrometry			relative to: other proteins in batch	log fold enrichment	-0.0605
F[C@@H]1CCN(c2ccc(-c3ccc4sc(-c5cccnc5)cc4n3)cn2)C1	Alpha-synuclein, aggregates (SNCA, Homo sapiens, UniProt P37840)	[3H] homologous binding	human PD brain homogenate	with: [3H]compound		Bmax	55 ± 9 nM

A few entries again:
Compound	target	assay	system	conditions	how to read	measurement	result
CCOC(=O)c1cccc(C(=O)c2c[nH]c3ccccc23)n1	AHR (Homo sapiens, UniProt P35869)	reporter gene, agonist, XRE luciferase	HepG2		relative to: ITE	Emax	44 ± 3%
COc1cc(C#CC(=O)c2ccccc2)ccc1O	rhlR (Pseudomonas aeruginosa, UniProt P54292)	reporter gene, inhibitor	Pseudomonas aeruginosa QS reporter strain	10 µM, 1.5 h	relative to: DMSO control	remaining activity	52%
